Measurements from different studies.
Every numbered part comes from another study and shows a few of its results, in no order. Several values in a cell are separate wells, animals, samples, runs or records.
Sequence of UniProt Q15835 (whole entry, looked up): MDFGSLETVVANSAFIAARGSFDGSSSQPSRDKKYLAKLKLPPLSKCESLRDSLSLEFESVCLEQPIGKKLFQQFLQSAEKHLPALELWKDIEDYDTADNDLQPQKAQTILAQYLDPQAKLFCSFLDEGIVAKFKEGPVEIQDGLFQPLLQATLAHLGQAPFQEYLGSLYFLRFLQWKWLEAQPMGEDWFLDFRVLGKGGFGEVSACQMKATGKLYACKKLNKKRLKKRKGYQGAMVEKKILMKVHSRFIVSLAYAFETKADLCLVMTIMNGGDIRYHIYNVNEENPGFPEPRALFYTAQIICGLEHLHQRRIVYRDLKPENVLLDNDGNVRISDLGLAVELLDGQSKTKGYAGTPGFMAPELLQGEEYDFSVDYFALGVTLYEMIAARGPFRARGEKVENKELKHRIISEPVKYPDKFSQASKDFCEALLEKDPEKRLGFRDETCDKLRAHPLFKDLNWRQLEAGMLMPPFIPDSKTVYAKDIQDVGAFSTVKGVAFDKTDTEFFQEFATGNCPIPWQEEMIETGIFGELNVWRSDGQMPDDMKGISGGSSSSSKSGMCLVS
Sequence of UniProt Q8IYT8 (whole entry, looked up): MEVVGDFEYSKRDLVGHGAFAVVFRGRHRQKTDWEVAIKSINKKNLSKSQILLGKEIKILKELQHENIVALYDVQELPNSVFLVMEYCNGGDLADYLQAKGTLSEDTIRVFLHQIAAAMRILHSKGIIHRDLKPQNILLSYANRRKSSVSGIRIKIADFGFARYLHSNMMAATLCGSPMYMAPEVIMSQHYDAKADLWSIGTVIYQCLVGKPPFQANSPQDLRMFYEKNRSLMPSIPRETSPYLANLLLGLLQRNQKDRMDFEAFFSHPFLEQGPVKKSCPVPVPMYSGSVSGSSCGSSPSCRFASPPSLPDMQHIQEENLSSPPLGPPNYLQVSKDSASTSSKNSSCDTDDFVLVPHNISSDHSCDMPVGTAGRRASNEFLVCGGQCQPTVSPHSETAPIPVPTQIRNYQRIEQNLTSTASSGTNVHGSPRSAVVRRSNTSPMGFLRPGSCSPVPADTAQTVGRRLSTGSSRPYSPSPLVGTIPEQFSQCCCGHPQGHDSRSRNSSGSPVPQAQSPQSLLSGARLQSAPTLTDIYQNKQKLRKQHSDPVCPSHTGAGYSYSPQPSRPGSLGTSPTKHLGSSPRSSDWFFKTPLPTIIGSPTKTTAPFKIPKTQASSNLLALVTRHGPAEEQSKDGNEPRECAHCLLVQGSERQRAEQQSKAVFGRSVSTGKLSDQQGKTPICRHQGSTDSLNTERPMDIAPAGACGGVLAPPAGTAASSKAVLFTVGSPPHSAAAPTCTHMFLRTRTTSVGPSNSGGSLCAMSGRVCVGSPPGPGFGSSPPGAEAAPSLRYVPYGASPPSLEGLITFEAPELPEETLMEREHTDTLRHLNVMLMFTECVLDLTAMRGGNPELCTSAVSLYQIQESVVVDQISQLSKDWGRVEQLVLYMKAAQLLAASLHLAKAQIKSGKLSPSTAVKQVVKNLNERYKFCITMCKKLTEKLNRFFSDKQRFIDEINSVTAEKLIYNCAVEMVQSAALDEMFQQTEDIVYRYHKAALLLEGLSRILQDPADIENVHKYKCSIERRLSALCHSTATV
Sequence of UniProt O75716 (whole entry, looked up): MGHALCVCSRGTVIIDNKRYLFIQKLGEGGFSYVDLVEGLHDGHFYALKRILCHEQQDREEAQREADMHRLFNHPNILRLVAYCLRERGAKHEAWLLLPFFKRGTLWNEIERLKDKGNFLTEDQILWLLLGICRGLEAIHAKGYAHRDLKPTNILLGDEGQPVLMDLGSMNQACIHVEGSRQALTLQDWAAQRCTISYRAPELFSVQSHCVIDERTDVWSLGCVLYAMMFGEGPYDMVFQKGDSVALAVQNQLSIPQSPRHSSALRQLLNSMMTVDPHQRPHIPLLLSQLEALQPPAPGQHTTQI
Sequence of UniProt P49137 (whole entry, looked up): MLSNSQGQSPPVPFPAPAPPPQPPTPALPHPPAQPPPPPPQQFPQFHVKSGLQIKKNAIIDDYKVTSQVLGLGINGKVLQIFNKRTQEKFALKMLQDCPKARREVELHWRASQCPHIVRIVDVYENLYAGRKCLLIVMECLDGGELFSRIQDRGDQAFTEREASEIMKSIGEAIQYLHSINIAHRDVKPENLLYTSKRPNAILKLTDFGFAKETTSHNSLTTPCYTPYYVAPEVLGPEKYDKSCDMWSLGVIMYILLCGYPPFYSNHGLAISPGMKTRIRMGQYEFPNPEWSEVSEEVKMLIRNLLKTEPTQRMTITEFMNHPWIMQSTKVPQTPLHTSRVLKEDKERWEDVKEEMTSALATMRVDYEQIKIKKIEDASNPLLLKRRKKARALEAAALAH
Sequence of UniProt Q96NX5 (whole entry, looked up): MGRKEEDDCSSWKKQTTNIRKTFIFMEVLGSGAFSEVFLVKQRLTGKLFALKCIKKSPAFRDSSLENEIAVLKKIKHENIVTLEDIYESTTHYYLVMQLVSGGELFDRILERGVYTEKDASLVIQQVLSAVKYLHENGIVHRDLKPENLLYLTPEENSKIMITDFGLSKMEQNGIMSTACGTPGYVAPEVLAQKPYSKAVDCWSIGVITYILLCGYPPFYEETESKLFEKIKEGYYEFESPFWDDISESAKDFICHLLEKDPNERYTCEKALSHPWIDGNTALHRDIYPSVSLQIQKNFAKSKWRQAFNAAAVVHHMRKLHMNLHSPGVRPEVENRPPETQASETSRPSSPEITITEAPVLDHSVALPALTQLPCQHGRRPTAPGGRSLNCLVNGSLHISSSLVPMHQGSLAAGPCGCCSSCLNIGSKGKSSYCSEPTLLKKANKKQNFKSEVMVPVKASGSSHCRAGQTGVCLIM
Sequence of UniProt P51817 (whole entry, looked up): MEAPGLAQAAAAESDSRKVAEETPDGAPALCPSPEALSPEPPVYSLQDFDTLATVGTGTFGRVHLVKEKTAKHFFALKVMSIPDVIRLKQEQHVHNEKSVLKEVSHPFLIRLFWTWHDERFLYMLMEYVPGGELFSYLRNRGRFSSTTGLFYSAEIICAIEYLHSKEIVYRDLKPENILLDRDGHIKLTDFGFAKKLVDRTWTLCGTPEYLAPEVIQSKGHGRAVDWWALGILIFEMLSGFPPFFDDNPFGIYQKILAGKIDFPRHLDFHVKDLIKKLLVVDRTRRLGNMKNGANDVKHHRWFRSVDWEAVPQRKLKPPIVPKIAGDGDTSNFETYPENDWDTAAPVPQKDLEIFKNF
Sequence of UniProt O00329 (whole entry, looked up): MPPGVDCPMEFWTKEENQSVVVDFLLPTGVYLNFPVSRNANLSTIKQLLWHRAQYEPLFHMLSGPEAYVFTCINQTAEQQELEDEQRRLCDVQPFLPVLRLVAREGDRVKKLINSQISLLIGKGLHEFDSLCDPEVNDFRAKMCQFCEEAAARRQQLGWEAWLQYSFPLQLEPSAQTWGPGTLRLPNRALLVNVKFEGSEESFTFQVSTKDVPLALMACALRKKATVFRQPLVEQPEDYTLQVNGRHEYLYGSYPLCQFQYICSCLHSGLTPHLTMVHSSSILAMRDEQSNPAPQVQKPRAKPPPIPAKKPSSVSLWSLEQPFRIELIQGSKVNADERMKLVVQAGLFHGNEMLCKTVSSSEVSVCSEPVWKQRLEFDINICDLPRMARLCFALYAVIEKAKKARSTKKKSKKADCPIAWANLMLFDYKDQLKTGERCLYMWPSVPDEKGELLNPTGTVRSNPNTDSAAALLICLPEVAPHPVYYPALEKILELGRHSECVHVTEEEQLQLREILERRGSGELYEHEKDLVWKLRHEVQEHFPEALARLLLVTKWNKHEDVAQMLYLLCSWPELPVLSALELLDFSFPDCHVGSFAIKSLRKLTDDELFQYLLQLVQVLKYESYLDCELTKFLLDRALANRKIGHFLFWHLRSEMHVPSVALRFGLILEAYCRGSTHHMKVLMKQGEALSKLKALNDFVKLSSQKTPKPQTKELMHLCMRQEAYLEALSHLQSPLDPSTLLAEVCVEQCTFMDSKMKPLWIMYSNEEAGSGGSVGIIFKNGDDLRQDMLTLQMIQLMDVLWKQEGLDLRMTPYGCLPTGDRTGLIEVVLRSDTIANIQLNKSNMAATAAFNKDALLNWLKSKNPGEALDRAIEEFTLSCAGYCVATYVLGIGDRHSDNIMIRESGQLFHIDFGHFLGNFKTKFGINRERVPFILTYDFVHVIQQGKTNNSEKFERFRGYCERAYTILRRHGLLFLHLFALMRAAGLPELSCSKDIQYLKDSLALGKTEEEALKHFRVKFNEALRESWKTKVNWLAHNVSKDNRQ
Sequence of UniProt P78356 (whole entry, looked up): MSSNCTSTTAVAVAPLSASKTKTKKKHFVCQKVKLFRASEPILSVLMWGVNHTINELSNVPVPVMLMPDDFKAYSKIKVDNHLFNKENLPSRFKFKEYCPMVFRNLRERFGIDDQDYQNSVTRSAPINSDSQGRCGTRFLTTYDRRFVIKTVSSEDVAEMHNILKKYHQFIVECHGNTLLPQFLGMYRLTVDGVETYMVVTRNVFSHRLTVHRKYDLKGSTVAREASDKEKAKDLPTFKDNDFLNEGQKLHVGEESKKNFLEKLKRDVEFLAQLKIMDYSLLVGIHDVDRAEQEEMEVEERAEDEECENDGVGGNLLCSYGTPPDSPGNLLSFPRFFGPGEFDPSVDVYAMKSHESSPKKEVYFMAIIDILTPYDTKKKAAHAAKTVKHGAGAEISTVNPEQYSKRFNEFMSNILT

Set 1 — effect on: binding; concentration: 1 µM
SMILES: CN1CCN(C(=O)c2ccc(NC(=O)Nc3ccc(N(C)c4ccnc(Nc5ccc(CS(C)(=O)=O)cc5)n4)cc3)cc2)CC1
target	remaining binding
PRKX (Homo sapiens, UniProt P51817)	100%
STK16 (Homo sapiens, UniProt O75716)	15%
PIK3CD (Homo sapiens, UniProt O00329)	100%

Set 2 — effect on: enzyme activity; action: inhibitor; concentration: 0.5 µM; relative to: control
Target: Mitogen-activated protein kinase 11 (MAPK11, Homo sapiens, UniProt Q15759)
Sequence of UniProt Q15759 (whole entry, looked up): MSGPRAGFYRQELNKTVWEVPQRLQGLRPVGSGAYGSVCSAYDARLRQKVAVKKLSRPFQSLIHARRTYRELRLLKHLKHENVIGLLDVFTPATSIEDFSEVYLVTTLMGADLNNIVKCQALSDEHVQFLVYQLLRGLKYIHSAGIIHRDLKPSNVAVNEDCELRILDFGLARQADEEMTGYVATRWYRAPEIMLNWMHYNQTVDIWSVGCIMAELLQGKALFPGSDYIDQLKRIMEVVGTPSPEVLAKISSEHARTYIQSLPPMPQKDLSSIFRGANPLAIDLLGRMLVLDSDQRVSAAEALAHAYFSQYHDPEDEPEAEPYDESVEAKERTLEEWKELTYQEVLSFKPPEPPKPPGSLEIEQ
SMILES	remaining activity [%]
O=C(O)c1ccc2c3c1cccc3c(=O)n1c3ccccc3nc21	105
Cn1c2ccccc2c2c3c(c4c5ccccc5n(CCC#N)c4c21)CNC3=O	99.5
OCC(O)CCON=C1C(c2c(O)[nH]c3ccccc23)=Nc2ccccc21 (centres unmarked)	95.2
COc1ccc(OC)c2c(=S)c3ccccc3[nH]c12	86.7
Nc1ncnc2n[nH]c(Nc3ccc(F)cc3)c12	108
N#CC(C#N)=C(N)/C(C#N)=C/c1ccc(O)cc1	100
O=S(=O)(c1cccc2cnccc12)N1CCCNCC1	91.9
COc1cc2ncnc(Nc3ccc(Oc4ccccc4)cc3)c2cc1OC	105
O=C1NC(=O)C(c2cn(CCCn3ccnc3)c3ccccc23)=C1Nc1ccccc1	111
CN(C)c1ccc(C=C2C(=O)Nc3ccccc32)cc1	93.5
Cc1cccc(-c2[nH]c(C(C)(C)C)nc2-c2ccc3c(c2)OCO3)n1	93
CC(C)[C@H](CO)Nc1nc(Nc2cc(N)cc(Cl)c2)c2ncn(C(C)C)c2n1	96.3
Cc1ccc(Nc2nccc(N(C)c3ccc4c(C)n(C)nc4c3)n2)cc1S(N)(=O)=O	93.3
Nc1[nH]nc2nc3ccccc3nc12	93.8
O=C(Nc1cccc(Nc2cc(Nc3cccc(C(F)(F)F)c3)ncn2)c1)C1CC1	97.2
COc1cc2nccc(Oc3ccc(NC(=S)NC(=O)c4ccccc4C)cc3)c2cc1OC	89.3
CO[C@H]1C[C@@H]2CC[C@@H](C)[C@@](O)(O2)C(=O)C(=O)N2CCCC[C@H]2C(=O)O[C@H]([C@H](C)C[C@@H]2CC[C@@H](O)[C@H](OC)C2)CC(=O)[C@H](C)/C=C(\C)[C@@H](O)[C@@H](OC)C(=O)[C@H](C)C[C@H](C)/C=C/C=C/C=C/1C	113
Oc1ccc(-c2nc(-c3ccncc3)c(-c3ccc(F)cc3)[nH]2)cc1	32.8
CCOC(=O)c1c(C)[nH]c(/C=C2\C(=O)Nc3ccccc32)c1C	97.5
C#Cc1cccc(Nc2ncnc3cc(OCCOC)c(OCCOC)cc23)c1	97.8
O=C1NC(=O)C(c2cn(CCCO)c3ncccc23)=C1c1cnccn1	105
NCCNc1ncc(C(N)=O)c(Nc2cccc(C(F)(F)F)c2)n1	100
Cc1ccc(NC(=O)c2ccc(CN3CCN(C)CC3)cc2)cc1Nc1nc(-c2cccnc2)cs1	102
Cc1nc(-c2ccccc2)c(-c2ccncc2)o1	101
COc1cc2ncnc(Nc3ccc(F)c(Cl)c3)c2cc1OCCCN1CCOCC1	95.1

Set 3 — cell line: HuT78; concentration: 2 µM; time: 48 h; relative to: untreated
Compound	viability [%]
CC(C)(C)c1nc(-c2cccc(NS(=O)(=O)c3c(F)cccc3F)c2F)c(-c2ccnc(N)n2)s1	77.3
O=C1N=C(NCc2cccs2)S/C1=C\c1ccc2ncccc2c1	117
O=C(Cc1ccc(-c2ccc(OCCN3CCOCC3)cc2)cn1)NCc1ccccc1	20.5
O=C(c1cccc(Cl)c1F)N1CCN(Cc2cccc(Nc3nccs3)n2)CC1	62.9
Cc1ccc(S(=O)(=O)/C=C/C#N)cc1	61.3

Set 4 — cell line: HaCaT; concentration: 100 µM; time: 60 h
Compound	viability [%]
COc1ccccc1N1CCN(CC(O)COc2cccc3ccccc23)CC1 (centres unmarked)	16.4
NC(=O)NO	98.3
CN(C)c1ccc(O)c2c1C[C@H]1C[C@H]3[C@H](N(C)C)C(O)=C(C(N)=O)C(=O)[C@@]3(O)C(O)=C1C2=O	110
N[C@@H](Cc1c[nH]c2ccccc12)C(=O)O	121

Set 5 — effect on: cell-free assay; technique: competition with immobilised ligand; concentration: 1 µM
Compound: CC(=O)C1=C(C)N(c2cccc(C(F)(F)F)c2)C(=O)N[C@@H]1c1ccc(C#N)nc1
target	remaining binding [%]
GRK1 (Homo sapiens, UniProt Q15835)	99.2
CAMK1G (Homo sapiens, UniProt Q96NX5)	100
MAPKAPK2 (Homo sapiens, UniProt P49137)	82.6
FLT3 (Homo sapiens, UniProt P36888, K663Q)	100
PIP4K2B (Homo sapiens, UniProt P78356)	52.8
ULK2 (Homo sapiens, UniProt Q8IYT8)	100

Set 6 — organism: Leishmania donovani
SMILES: c1ccc(Oc2ccc(Nc3c4c(nc5ccccc35)CCC4)cc2)cc1
effect on	technique	strain	matrix	concentration	time	inhibition
parasite killing	–	DD8	promastigotes	6.66 µM	72 h	99% and 91% and 100%
parasite killing	–	DD8	intracellular amastigotes	40 µM	96 h	100%
parasite killing	–	DD8	promastigotes	1.66 µM	24 h	28% and 29% and 27%
parasite growth	high-content imaging	MHOM/IN/80/DD8	amastigotes in THP-1 cells	20 µM	–	100%
parasite growth	high-content imaging	MHOM/IN/80/DD8	amastigotes in THP-1 cells	80 µM	–	100%
parasite killing	–	DD8	intracellular amastigotes	2 µM	72 h	84% and 85%

Set 7 — organism: Sarcocystis neurona; effect on: parasite growth; concentration: 10 µM; time: 96 h; notes: second screen; relative to: untreated
Structure (SMILES)	log2 fold change
COc1ccc(/C=C/C(=O)Nc2ccccc2C(=O)O)cc1OC	-0.56
COc1ccc(Cl)cc1C(=O)NCCc1ccc(S(=O)(=O)NC(=O)NC2CCCCC2)cc1	-0.0121
CNNCc1ccc(C(=O)NC(C)C)cc1	0.2
O=C(c1ccccc1)c1ccc2n1CCC2C(=O)O (centres unmarked)	0.75

A few entries again (set 6):
effect on	technique	strain	matrix	concentration	time	inhibition
parasite growth	high-content imaging	MHOM/IN/80/DD8	amastigotes in THP-1 cells	80 µM	–	100%
parasite killing	–	DD8	intracellular amastigotes	40 µM	96 h	100%
parasite killing	–	DD8	promastigotes	1.66 µM	24 h	28% and 29% and 27%
parasite killing	–	DD8	promastigotes	6.66 µM	72 h	99% and 91% and 100%
